Assay results collected from several papers.
± gives the spread as reported.
FGFR3 isoform IIIc: FGFR3 isoform IIIc (unknown, UniProt Q61851)
UniProt Q61851, sequence (whole entry, looked up): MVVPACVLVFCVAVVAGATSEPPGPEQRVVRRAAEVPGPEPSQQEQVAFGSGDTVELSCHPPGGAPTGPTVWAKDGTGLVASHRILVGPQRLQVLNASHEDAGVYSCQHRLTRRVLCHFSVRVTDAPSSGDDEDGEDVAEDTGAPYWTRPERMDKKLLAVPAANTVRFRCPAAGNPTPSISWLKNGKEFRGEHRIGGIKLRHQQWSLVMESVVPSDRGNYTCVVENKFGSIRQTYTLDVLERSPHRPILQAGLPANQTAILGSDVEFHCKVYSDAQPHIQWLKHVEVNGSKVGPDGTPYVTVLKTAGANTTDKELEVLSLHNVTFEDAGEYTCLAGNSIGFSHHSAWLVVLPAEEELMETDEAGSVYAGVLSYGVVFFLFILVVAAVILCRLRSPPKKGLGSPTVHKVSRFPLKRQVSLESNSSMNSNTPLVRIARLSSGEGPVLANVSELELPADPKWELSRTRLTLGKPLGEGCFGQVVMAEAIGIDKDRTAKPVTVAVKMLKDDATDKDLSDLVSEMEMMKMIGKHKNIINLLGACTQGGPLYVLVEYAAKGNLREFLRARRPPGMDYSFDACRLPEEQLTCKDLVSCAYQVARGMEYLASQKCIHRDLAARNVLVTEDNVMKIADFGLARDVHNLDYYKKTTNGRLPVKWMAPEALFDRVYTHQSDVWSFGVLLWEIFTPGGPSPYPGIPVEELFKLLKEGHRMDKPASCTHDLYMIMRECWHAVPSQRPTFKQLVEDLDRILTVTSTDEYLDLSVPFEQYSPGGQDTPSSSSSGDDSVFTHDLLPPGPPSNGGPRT
B1: TIMP3 24-144 (Homo sapiens, UniProt P35625); sequence looked up; chain CTCSPSHPQDAFCNSDIVIRAKVVGKKLVKEGPFGTLVYTIKQMKMYRGFTKMPHVQYIHTEASESLCGLKLEVNKYQYLLTGRVYDGKMYTGLCNFVERWDQLTLSQRKGLNYRYHLGCN
B2: RAD30/POL30 binary complex (Saccharomyces cerevisiae); Cy3 on PCNA; chain 1 MSKFTWKELIQLGSPSKAYESSLACIAHIDMNAFFAQVEQMRCGLSKEDPVVCVQWNSIIAVSYAARKYGISRMDTIQEALKKCSNLIPIHTAVFKKGEDFWQYHDGCGSWVQDPAKQISVEDHKVSLEPYRRESRKALKIFKSACDLVERASIDEVFLDLGRICFNMLMFDNEYELTGDLKLKDALSNIREAFIGGNYDINSHLPLIPEKIKSLKFEGDVFNPEGRDLITDWDDVILALGSQVCKGIRDSIKDILGYTTSCGLSSTKNVCKLASNYKKPDAQTIVKNDCLLDFLDCGKFEITSFWTLGGVLGKELIDVLDLPHENSIKHIRETWPDNAGQLKEFLDAKVKQSDYDRSTSNIDPLKTADLAEKLFKLSRGRYGLPLSSRPVVKSMMSNKNLRGKSCNSIVDCISWLEVFCAELTSRIQDLEQEYNKIVIPRTVSISLKTKSYEVYRKSGPVAYKGINFQSHELLKVGIKFVTDLDIKGKNKSYYPLTKLSMTITNFDIIDLQKTVVDMFGNQVHTFKSSAGKEDEEKTTSSKADEKTPKLECCKYQVTFTDQKALQEHADYHLALKLSEGLNGAEESSKNLSFGEKRLLFSRKRPNSQHTATPQKKQVTSSKNILSFFTRKK; chain 2 MLEAKFEEASLFKRIIDGFKDCVQLVNFQCKEDGIIAQAVDDSRVLLVSLEIGVEAFQEYRCDHPVTLGMDLTSLSKILRCGNNTDTLTLIADNTPDSIILLFEDTKKDRIAEYSLKLMDIDADFLKIEELQYDSTLSLPSSEFSKIVRDLSQLSDSINIMITKETIKFVADGDIGSGSVIIKPFVDMEHPETSIKLEMDQPVDLTFGAKYLLDIIKGSSLSDRVGIRLSSEAPALFQFDLKSGFLQFFLAPKFNDEE
B3: UGT1A9 (Homo sapiens, UniProt O60656); chain GKLLVVPMDGSHWFTMRSVVEKLILRGHEVVVVMPEVSWQLGRSLNCTVKTYSTSYTLEDLDREFKAFAHAQWKAQVRSIYSLLMGSYNDIFDLFFSNCRSLFKDKKLVEYLKESSFDAVFLDPFDNCGLIVAKYFSLPSVVFARGILCHYLEEGAQCPAPLSYVPRILLGFSDAMTFKERVRNHIMHLEEHLLCHRFFKNALEIASEILQTPVTEYDLYSHTSIWLLRTDFVLDYPKPVMPNMIFIGGINCHQGKPLPMEFEAYINASGEHGIVVFSLGSMVSEIPEKKAMAIADALGKIPQTVLWRYTGTRPSNLANNTILVKWLPQNDLLGHPMTRAFITHAGSHGVYESICNGVPMVMMPLFGDQMDNAKRMETKGAGVTLNVLEMTSEDLENALKAVINDKSYKENIMRLSSLHKDRPVEPLDLAVFWVEFVMRHKGAPHLRPAAHDLTWYQYHSLDVIGFLLAVVLTVAFITFKCCAYGYRKCLGKKGRVKKAHKSKTH
UniProt P25106, sequence (whole entry, looked up): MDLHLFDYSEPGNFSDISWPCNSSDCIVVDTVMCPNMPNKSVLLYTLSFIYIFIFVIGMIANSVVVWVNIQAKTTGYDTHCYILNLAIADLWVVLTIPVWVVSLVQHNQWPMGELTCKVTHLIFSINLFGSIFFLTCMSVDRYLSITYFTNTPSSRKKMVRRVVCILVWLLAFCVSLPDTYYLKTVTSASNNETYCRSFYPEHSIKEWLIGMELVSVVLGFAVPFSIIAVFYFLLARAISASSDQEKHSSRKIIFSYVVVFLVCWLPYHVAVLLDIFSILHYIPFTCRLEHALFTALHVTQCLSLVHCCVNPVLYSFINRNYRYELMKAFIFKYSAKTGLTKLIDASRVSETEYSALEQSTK
UniProt P12259, sequence (whole entry, unmodified, looked up): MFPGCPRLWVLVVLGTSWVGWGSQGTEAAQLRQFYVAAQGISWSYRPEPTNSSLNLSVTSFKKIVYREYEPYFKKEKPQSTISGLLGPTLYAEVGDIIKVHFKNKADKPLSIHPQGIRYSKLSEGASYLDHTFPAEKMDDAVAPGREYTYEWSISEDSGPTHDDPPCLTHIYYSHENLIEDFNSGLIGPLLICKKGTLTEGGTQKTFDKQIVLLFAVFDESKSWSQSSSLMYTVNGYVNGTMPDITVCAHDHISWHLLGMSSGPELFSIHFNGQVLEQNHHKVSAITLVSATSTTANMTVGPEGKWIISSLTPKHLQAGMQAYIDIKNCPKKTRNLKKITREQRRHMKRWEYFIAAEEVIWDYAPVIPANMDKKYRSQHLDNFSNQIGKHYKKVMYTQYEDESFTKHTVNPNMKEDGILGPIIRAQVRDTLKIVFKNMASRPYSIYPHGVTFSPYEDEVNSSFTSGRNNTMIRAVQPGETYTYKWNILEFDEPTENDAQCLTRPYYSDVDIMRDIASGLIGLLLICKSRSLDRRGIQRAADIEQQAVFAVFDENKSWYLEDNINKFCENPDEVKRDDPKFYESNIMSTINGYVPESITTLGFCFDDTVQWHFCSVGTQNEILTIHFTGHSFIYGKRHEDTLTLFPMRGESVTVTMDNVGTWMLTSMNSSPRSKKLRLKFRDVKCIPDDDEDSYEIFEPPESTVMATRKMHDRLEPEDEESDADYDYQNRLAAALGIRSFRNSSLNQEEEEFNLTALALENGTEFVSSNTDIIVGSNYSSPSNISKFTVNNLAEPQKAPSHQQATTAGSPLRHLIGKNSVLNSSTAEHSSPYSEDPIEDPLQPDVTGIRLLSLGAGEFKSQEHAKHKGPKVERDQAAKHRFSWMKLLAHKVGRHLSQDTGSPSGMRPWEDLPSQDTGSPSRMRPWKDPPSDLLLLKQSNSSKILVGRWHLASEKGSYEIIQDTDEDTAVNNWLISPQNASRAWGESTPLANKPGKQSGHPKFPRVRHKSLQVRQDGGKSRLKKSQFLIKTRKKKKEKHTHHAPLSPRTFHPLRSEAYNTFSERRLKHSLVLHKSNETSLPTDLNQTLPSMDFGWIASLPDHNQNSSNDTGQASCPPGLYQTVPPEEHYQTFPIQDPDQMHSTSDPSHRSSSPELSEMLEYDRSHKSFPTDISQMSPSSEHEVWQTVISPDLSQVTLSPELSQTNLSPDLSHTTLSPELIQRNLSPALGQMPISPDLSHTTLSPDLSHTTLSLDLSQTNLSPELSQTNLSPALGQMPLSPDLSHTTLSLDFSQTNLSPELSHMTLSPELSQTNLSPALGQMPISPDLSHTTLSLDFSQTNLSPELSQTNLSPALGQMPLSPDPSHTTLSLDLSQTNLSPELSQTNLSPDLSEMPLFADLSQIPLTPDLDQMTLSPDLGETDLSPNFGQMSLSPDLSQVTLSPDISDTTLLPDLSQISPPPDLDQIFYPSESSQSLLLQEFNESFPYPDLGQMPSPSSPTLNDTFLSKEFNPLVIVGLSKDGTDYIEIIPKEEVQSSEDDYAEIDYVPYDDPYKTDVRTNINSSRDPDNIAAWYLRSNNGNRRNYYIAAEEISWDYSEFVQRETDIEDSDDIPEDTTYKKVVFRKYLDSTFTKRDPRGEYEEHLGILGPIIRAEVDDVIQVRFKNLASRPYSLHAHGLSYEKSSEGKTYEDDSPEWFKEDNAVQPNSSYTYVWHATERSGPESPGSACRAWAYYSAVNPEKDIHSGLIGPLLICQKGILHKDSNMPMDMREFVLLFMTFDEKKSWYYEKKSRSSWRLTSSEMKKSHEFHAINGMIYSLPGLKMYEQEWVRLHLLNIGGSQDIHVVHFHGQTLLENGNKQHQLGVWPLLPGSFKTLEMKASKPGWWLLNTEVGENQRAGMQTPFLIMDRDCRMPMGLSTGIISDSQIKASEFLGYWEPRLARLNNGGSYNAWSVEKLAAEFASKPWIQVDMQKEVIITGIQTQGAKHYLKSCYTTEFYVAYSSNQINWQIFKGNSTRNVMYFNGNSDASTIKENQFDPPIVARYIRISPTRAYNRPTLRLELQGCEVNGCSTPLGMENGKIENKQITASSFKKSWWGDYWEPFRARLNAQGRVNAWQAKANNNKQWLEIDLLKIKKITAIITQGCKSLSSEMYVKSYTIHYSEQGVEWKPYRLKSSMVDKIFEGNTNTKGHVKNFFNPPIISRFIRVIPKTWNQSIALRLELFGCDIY
UniProt O75173, sequence (whole entry, unmodified, looked up): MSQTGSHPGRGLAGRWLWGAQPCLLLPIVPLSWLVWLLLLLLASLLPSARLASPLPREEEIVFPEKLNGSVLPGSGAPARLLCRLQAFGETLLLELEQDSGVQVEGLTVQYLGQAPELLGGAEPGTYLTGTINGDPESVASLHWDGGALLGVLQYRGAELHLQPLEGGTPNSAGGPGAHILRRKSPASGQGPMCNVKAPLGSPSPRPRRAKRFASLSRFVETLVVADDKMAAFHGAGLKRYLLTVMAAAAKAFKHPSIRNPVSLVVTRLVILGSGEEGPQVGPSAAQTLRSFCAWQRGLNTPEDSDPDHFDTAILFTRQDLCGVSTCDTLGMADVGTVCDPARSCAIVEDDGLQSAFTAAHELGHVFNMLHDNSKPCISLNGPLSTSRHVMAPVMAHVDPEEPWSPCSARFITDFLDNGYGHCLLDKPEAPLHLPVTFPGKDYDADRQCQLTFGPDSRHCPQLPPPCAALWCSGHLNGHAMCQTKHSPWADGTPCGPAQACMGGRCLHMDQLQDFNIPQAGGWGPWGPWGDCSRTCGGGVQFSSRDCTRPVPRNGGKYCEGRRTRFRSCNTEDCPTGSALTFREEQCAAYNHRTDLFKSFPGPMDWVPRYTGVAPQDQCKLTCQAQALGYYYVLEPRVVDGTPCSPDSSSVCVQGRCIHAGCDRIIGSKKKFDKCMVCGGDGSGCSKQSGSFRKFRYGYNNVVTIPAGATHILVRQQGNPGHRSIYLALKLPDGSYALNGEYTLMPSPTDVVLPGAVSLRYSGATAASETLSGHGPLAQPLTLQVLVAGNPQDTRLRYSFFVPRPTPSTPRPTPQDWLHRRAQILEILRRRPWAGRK
UniProt Q12798, sequence (whole entry, unmodified, looked up): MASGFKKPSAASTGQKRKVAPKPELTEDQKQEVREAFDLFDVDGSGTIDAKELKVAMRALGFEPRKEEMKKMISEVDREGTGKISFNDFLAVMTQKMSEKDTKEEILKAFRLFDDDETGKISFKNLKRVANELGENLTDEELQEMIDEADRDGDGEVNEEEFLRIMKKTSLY
UniProt P55075, sequence (whole entry, looked up): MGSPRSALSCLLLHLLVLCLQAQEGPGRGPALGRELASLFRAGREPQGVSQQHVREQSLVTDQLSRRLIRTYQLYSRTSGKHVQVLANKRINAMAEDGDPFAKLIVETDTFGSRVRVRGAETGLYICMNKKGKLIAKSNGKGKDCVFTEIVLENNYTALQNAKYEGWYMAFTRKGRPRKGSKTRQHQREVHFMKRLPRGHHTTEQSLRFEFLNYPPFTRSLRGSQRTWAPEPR
UniProt Q96D31, sequence (whole entry, looked up): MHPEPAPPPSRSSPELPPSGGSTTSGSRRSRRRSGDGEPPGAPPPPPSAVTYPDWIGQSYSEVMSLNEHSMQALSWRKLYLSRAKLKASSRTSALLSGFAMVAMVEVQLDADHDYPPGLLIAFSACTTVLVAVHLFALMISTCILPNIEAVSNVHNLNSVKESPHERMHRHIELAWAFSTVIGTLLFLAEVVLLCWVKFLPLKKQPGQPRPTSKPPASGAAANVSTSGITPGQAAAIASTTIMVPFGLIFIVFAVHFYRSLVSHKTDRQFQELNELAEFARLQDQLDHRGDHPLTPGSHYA
UniProt P48061, sequence (whole entry, looked up): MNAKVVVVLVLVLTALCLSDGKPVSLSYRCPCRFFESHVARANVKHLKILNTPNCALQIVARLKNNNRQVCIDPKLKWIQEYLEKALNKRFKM

TFPI (Homo sapiens, UniProt P10646-1)
IC50 (F5 B-domain deleted 811-1490 R709Q/R1545Q (UniProt P12259); prothrombinase inhibition, inhibitor; added: UFH 1 u/mL): 0.0149 µM

B1 (TIMP3 24-144)
Ki (ADAMTS4 213-685 (Homo sapiens, UniProt O75173); inhibitor, steady-state kinetics; 1 h, pH 7.5, 37 °C): 0.00018 µM

YAGRRKERPTSLNVFP (MAPK8IP3 D-site peptide (Homo sapiens))
IC50 (Mapk14 D315S/D316E/E317A, pT180, pY182 (Rattus norvegicus, UniProt P70618); kinase activity, inhibitor, competitive kinase inhibition assay; peptide; added: ATP 1 mM): > 100 µM

Ac-SQHNRQLLRGALRRWK-NH2 (SFI1 repeat 18, 677-692 (Homo sapiens); N-acetyl; C-terminal amide)
ΔH (CETN1, phosphothreonine (Homo sapiens, UniProt Q12798); ITC; peptide): -43 kcal/mol

B2 (RAD30/POL30 binary complex)
koff (REV1, Cy5 label (Saccharomyces cerevisiae, UniProt P12689); single-molecule TIRF; pH 7.5): 1.2 ± 0.1 s⁻¹

Ac-GRPCG-NH2 (PTX3 100-104 A100G/A104G, N-acetyl/C-terminal amide (Homo sapiens); N-acetyl/C-terminal amide)
ID50 (FGF2 18 kD form (Homo sapiens); cell proliferation, antagonist; peptide, GM7373; 3-1000 µM, added: FGF2 0.55 nM): 1000 µM

SUMO1 fragment R66E (Arabidopsis thaliana)
SUMO conjugation rate (SAE2/SAE1a (Arabidopsis thaliana); SUMO conjugation; 42 °C; reference: native AtSUMO1, higher = faster conjugation): 50%

FGF8b (Homo sapiens)
cell proliferation (FGFR3 isoform IIIc; cell proliferation, MTT; BaF3-FGFR3c; 20 nM, 48 h, added: chondroitin sulfate D 4.9 µg/mL; reference: FGF 1 with heparin, higher = more proliferation): 41%

CXCL12 (UniProt P48061)
Tm (ACKR3 (Homo sapiens, UniProt P25106); CPM assay; micelles, bicelles, nanodiscs): > 60 °C

ITGAV/ITGB3 mature heterodimer (Homo sapiens)
cell spreading (FBN1 1486-1605 (Homo sapiens, UniProt P35555); cell spreading; BHK; 1 µM; higher = more spread cells): 70%

B3 (UGT1A9)
Vmax (COc1cc2c(=O)c(-c3ccc(O)cc3)coc2cc1O; steady-state kinetics; pH 7.4, 37 °C): 0.000403 µmol/min/mg

FGF8 (Homo sapiens, UniProt P55075)
cell proliferation (FGFR3 isoform IIIc; cell proliferation, MTT; BaF3-FGFR3c; 20 nM, 48 h, added: heparin 4.9 µg/mL; reference: FGF 1 with heparin, higher = more proliferation): 110%

STIM1 (Homo sapiens, UniProt Q13586)
temperature for half block (ORAI1 (Homo sapiens, UniProt Q96D31); I_CRAC block, whole-cell patch clamp; HEK293T; added: CPA): 36.9 °C

Repeated from above:
CXCL12 (UniProt P48061)
Tm (ACKR3 (Homo sapiens, UniProt P25106); CPM assay; micelles, bicelles, nanodiscs): > 60 °C

FGF8 (Homo sapiens, UniProt P55075)
cell proliferation (FGFR3 isoform IIIc; cell proliferation, MTT; BaF3-FGFR3c; 20 nM, 48 h, added: heparin 4.9 µg/mL; reference: FGF 1 with heparin, higher = more proliferation): 110%
